Results gathered from unrelated publications.
± gives the spread as reported.
Matrix: plasma

SMILES | species | route | dose | time | notes | added | AUC(0-24 h)
COc1cccc(-c2ccc(NC(=O)C3=C(C(=O)O)CCC3)c(F)c2)c1 | human male | oral | 30 mg once daily | day 13 | geometric mean |  | 100000 ng·h/mL
O=C(c1nc2n(n1)[C@H](c1ccccc1)C[C@@H]2F)C1CC1 | humans | oral | 75 mg single dose |  | high-fat meal |  | 9400 ng·h/mL
CNCc1ccc(-c2[nH]c3cc(F)cc4c3c2CCNC4=O)cc1 | human cancer patients | intravenous | 18 mg/m2 | day 4 |  | temozolomide 200 | 2880 ng·h/mL
CC(O)C(C)n1ncn(-c2ccc(N3CCN(c4ccc(OCC5COC(Cn6cncn6)(c6ccc(Cl)cc6Cl)O5)cc4)CC3)cc2)c1=O (stereo not shown) | human male | oral | dose not given | day 3 | geometric mean | itraconazole 200 mg pretreatment | 13500 ng·h/mL
C#Cc1cccc(Nc2ncnc3cc(OCCOC)c(OCCOC)cc23)c1 | human | oral | dose not given | day 29 | normalised to 150 mg dose | dovitinib | 1860 ± 1790 ng·h/mL
COc1ccc(-n2nc(C(N)=O)c3c2C(=O)N(c2ccc(N4CCCCC4=O)cc2)CC3)cc1 | healthy human subjects | oral | 2.5 mg twice daily | day 4 | steady state, geometric mean | rivaroxaban 10 mg once daily | 935 ng·h/mL
Nc1ncc(-c2cnn(CCO)c2)c2scc(-c3ccc(NC(=O)Nc4cccc(F)c4)cc3)c12 | human patients | oral | 20 mg once weekly | first dose |  |  | 540 ng·h/mL
CC(C)[C@H](C(=O)Nc1ccc(C(=O)NO)cc1)c1ccccc1 | human | oral | 30 to 80 mg |  | individual values |  | 4.93 to 27.6 µM·h
C#Cc1cccc(Nc2ncnc3cc(OCCOC)c(OCCO)cc23)c1 | human |  | erlotinib | day 29 | normalised to erlotinib 150 mg | dovitinib | 342 ± 252 ng·h/mL
CNCc1ccc(-c2[nH]c3cc(F)cc4c3c2CCNC4=O)cc1 | human | oral | 300 mg |  | fasted, median |  | 5410 ng·h/mL

Some of these lines once more:
SMILES | species | route | dose | time | notes | added | AUC(0-24 h)
COc1ccc(-n2nc(C(N)=O)c3c2C(=O)N(c2ccc(N4CCCCC4=O)cc2)CC3)cc1 | healthy human subjects | oral | 2.5 mg twice daily | day 4 | steady state, geometric mean | rivaroxaban 10 mg once daily | 935 ng·h/mL
